{"data": "Assay results pooled from the literature", "note": "Each numbered part is a random draw from the data of one study; scales do not carry over between parts. Substitutions count along the parent as printed."}
{"data": "Study 1", "target": "CRIPT, C-terminal peptide", "technique": "DHFR complementation, deep sequencing", "medium": "yeast", "notes": "single substitutions, model-inferred values", "reference": "wild type", "reading": "higher = weaker binding", "starting sequence": "ERBIN, PDZ domain 1 (human); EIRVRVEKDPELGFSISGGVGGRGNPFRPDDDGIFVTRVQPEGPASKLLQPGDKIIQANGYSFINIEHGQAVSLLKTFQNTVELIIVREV; partner TKNYKQTSV"}
{"Change": "E89N", "binding free energy change [kcal/mol]": 0.00665}
{"Change": "Y61D", "binding free energy change [kcal/mol]": 0.0698}
{"Change": "N80T", "binding free energy change [kcal/mol]": 0.0956}
{"Change": "Q70L", "binding free energy change [kcal/mol]": 0.206}
{"Change": "R3Y", "binding free energy change [kcal/mol]": 0.0556}
{"Change": "R3K", "binding free energy change [kcal/mol]": -0.145}
{"Change": "R5Y", "binding free energy change [kcal/mol]": 0.0782}
{"Change": "Y61E", "binding free energy change [kcal/mol]": -0.0617}
{"data": "Study 2", "target": "CCND3, cyclin fold, Cln2 fusion (human)", "technique": "yeast growth competition, sequencing", "medium": "yeast", "notes": "weak parent motif", "reference": "not given", "reading": "higher = stronger binding", "starting sequence": "viral docking peptide; KGVKRKLFAEDSS"}
{"Change": "KGVKRKKFAEDSS [L7K]", "normalised enrichment score": 0.299}
{"Change": "KSVKRKLFAEDSS [G2S]", "normalised enrichment score": 0.065}
{"Change": "KGVSRKLFAEDSS [K4S]", "normalised enrichment score": 0.351}
{"data": "Study 3", "target": "vanadate, free oxyanion", "technique": "microfluidic competitive inhibition", "medium": "in vitro, cell-free expressed", "concentration": "not given", "notes": "derived from inhibition constants, unchanged parent 676 nM", "reading": "lower = stronger binding", "starting sequence": "PafA, mature enzyme, eGFP fusion (Elizabethkingia meningoseptica, UniProt Q9KJX5); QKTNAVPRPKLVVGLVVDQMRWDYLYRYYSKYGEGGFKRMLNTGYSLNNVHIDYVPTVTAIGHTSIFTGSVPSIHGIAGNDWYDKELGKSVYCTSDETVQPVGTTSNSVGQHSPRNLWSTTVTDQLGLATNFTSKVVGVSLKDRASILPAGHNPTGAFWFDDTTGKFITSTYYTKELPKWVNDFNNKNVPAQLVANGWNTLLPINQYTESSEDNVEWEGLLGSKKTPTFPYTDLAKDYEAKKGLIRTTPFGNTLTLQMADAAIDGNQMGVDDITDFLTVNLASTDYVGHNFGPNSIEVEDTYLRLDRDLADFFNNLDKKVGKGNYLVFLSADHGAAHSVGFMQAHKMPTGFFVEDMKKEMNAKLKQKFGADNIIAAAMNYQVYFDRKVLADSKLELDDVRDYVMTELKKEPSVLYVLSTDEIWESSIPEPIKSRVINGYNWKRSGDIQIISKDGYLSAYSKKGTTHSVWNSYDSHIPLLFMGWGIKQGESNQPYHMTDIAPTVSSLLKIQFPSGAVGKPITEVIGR"}
{"Change": "V136G", "oxyanion analog dissociation constant": "448 nM"}
{"Change": "N470V", "oxyanion analog dissociation constant": "685 nM"}
{"Change": "H63V", "oxyanion analog dissociation constant": "3.96 µM"}
{"data": "Study 4", "target": "PABPC1L2, full length, GST fusion (mouse, UniProt A0ABA7IW68)", "technique": "RNAcompete", "molecule type": "RNA", "medium": "in vitro", "concentration": "20 nM", "notes": "7-mer, probes averaged, single round", "reference": "mean of 7-mers", "reading": "higher = stronger binding", "Construct (chain)": "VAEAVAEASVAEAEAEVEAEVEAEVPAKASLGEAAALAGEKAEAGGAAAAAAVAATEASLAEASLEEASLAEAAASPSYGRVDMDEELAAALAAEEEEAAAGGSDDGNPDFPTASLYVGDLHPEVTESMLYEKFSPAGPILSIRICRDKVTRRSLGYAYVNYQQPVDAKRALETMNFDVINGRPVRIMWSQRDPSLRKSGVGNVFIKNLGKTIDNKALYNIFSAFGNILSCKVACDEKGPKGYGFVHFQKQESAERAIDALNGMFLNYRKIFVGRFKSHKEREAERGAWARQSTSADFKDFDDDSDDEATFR"}
{"Oligonucleotide": "UCCUCCA", "7-mer Z-score": -0.307}
{"Oligonucleotide": "CUGCGGG", "7-mer Z-score": 0.187}
{"Oligonucleotide": "UCAAUAG", "7-mer Z-score": -0.182}
{"Oligonucleotide": "UCCCCGC", "7-mer Z-score": -0.454}
{"Oligonucleotide": "CGGUUCG", "7-mer Z-score": -0.257}
{"Oligonucleotide": "UGCGCCU", "7-mer Z-score": -0.403}
{"Oligonucleotide": "CGUGACU", "7-mer Z-score": -0.13}
{"Oligonucleotide": "GACUUCU", "7-mer Z-score": -0.251}
{"data": "Single results of other studies"}
{"Compound": "O=C(NCc1ncc(C(F)(F)F)cc1Cl)c1ccc2c(c1)C1(CCS(=O)(=O)CC1)[C@@H](C1CC1)N2S(=O)(=O)c1ccc(F)cc1", "target": "Sodium-dependent serotonin transporter (SLC6A4, Homo sapiens, UniProt P31645)", "effect on": "cell-free assay", "concentration": "10 µM", "quantity": "inhibition", "value": "-4.88%"}
{"note": "A few entries again (study 2):"}
{"Change": "KGVKRKKFAEDSS [L7K]", "normalised enrichment score": 0.299}
{"Change": "KSVKRKLFAEDSS [G2S]", "normalised enrichment score": 0.065}
{"Change": "KGVSRKLFAEDSS [K4S]", "normalised enrichment score": 0.351}
